# Experimental data gathered from unrelated publications.
# Each line is one published result; not all experiments were run side by side. Values joined by “and” are separate records of one study, mostly repeats; a detail may differ. ± marks the error that the study gave.
# IDE: Insulin-degrading enzyme (IDE, Homo sapiens, UniProt P14735)
Structure (SMILES),tested on,assay,test system,conditions,how to read,measurement,value
COc1ccc(CNc2nc(-c3ccc(C(=O)O)cc3)nc3c2c2ccccc2n3C)cc1Cl,,,NSG mice,"dose not given, day 4 of treatment",,body weight,23.8 g and 21.4 g and 22.4 g and 23.3 g
O=C(O)CSc1nnc(Br)n1-c1ccc(C2CC2)c2ccccc12,,,"KM mouse, chronic hyperuricaemia model","dose not given, day 18",,body weight,35.8 g and 36.4 g and 39.2 g and 29.4 g and 32 g and 36.2 g
CCCCc1nc2cc(/C=C/C(=O)NO)ccc2n1CCN(CC)CC,,,"mouse, MV4-11 xenograft","25 mg/kg daily, day 21",baseline: baseline,body weight,96.8%
Cc1[nH]c(C)c(-c2ccc(-c3ccccc3Cl)nc2)c(=O)c1Cl,Plasmodium yoelii,,17XL,384-well,,IC50,0.24 ± 0.085 µM
Cc1cnc(Nc2ccc(OCCN3CCCC3)cc2)nc1Nc1cccc(S(=O)(=O)NC(C)(C)C)c1,,,"BALB/c mice, rhEPO-induced polycythemia","120 mg/kg, day 3",,body weight,19.4 g and 18.4 g and 18.9 g and 19.5 g and 18.8 g
Cc1nc(-c2ccc(OCC(C)C)c(C#N)c2)sc1C(=O)O,,,"KM mouse, chronic hyperuricaemia model","dose not given, day 19",,body weight,37.9 g and 31.8 g and 33.9 g and 41.8 g and 37.7 g and 31.4 g
O=C1NC(=O)/C(=C/c2ccc3ncnc(N4CCC(F)(F)CC4)c3n2)S1,,,NSG mice,"dose not given, day 2",,body weight,20.3 g and 19.2 g and 17.7 g
C1=C/COCc2cc(ccc2OCCN2CCCC2)Nc2nccc(n2)-c2cccc(c2)COC/1,,,"BALB/c mice, rhEPO-induced polycythemia","120 mg/kg, day 0",,body weight,17.6 g and 20.1 g and 18.3 g and 19 g and 18.9 g and 18.1 g
COc1cc(N2CCC(N3CCN(C)CC3)CC2)ccc1Nc1ncc(Cl)c(Nc2ccccc2P(C)(C)=O)n1,,,"nude mice, NCI-H3122 xenograft","intraperitoneal, 10 mg/kg every other day, day 15",,body weight,25 g and 26.5 g and 23.9 g and 22.9 g and 23.8 g
COCC(=O)N1CCCCN2[C@H](CO)[C@@H](c3ccc(-c4cccc(C)c4)cc3)[C@@H]2C1,IDE,"enzyme activity, inhibitor, fluorogenic kinetic",,with: Mca-RPPGFSAFK(Dnp)-OH substrate,,EC50,16 µM
CC(C(=O)Nc1cccc(/N=C/c2c(O)ccc3ccccc23)c1)c1ccccc1 (stereo not shown),HBL-1,,,"1 µM, 120 h",,viability,94.7%
COC(=O)c1ccc(S(=O)(=O)N2CCCCN3[C@H](CO)[C@@H](c4ccc(-c5cccc(C)c5C)cc4)[C@@H]3C2)n1C,IDE,"enzyme activity, inhibitor, fluorescence kinetic",,with: Mca-RPPGFSAFK(Dnp)-OH substrate,,EC50,> 5 µM
CCc1nn(C)c2nc(-c3ccc(C(=O)O)cc3)nc(NCc3ccc(F)cc3)c12,,,NSG mice,"dose not given, day 8 of treatment",,body weight,20.3 g and 22 g and 21.2 g and 17.6 g
